Assay results collected from several papers.
Protocols differ between the studies behind these lines. ± marks the error that the study gave.

The inhibition of `O=C(NCc1ccc(CNS(=O)(=O)c2ccc(CN3CCCC3)cc2)cc1)c1ccc(F)cc1` is reported as about 20% (carrageenan paw oedema; mouse C57BL/6J female; ip, 10 mg/kg daily, 74 h; reference: vehicle).
For `C[C@]12CCCN1CC1=NNC(=O)c3cc(F)cc4[nH]c2c1c34`, the inhibition was 98% (PARylation in tumour; mouse, MDA-MB-436 xenograft, tumour; 5.45 mg/kg, 0.5 h).
With `CC(C)Cc1ccc(C(C)C(=O)O)cc1` (centres unmarked) the inhibition was 74.1% (analgesic activity; mouse, acetic acid writhing; oral, 20 mg/kg, 30 min before acetic acid; reference: vehicle).
With `O=C(c1cc(Cc2n[nH]c(=O)c3ccccc23)ccc1F)N1CCN(C(=O)C2CC2)CC1` the inhibition was 72% (PARylation in tumour; mouse, MDA-MB-436 xenograft, tumour; 25 mg/kg, 12 h).
With `C[n+]1cccc2c(N)cccc21` the inhibition was about 70% (item: 1-MNA; mouse, epididymal white adipose tissue; subcutaneous, 25 mg/kg once daily for 5 days, 1 h post-dose; reference: 1-MNA level at 8 h post-dose).
`AGEDPHGYFLPGQFA` gave an inhibition of 61% (TNF-α expression; peptide, peritoneal macrophages, C57BL/6 mouse; 1 pM, 15 h, pretreated 1 h, optimal dose, with: LPS 100 ng/ml + IFN-γ 20 ng/ml).
With `O=C(NCc1ccc(CNS(=O)(=O)c2ccc(CN3CCOCC3)cc2)cc1)c1ccc(F)cc1` the inhibition was about 20% (carrageenan paw oedema; mouse C57BL/6J female; ip, 10 mg/kg daily, 74 h; reference: vehicle).
For `PHGYFLPGQFAFS`, the inhibition was 10% (TNF-α expression; peptide, peritoneal macrophages, C57BL/6 mouse; 100 pM, 15 h, pretreated 1 h, optimal dose, with: LPS 100 ng/ml + IFN-γ 20 ng/ml).
The inhibition of `CNC(=O)c1cc(Oc2ccc(NC(=O)Nc3ccc(Cl)c(C(F)(F)F)c3)cc2)ccn1` is reported as 65 ± 9.16% (tumour volume; nude mouse, subcutaneous MHCC97H; oral, 2 mg/kg every 2 days, 10 doses, 21 days, cells transfected).
With `AQAGEDPHGYFLPGQFAFS` the inhibition was 41% (RANTES expression; peptide, peritoneal macrophages, C57BL/6 mouse; 100 pM, 15 h, pretreated 1 h, optimal dose, with: LPS 100 ng/ml + IFN-γ 20 ng/ml).
With `CNC(=O)[C@@]12C[C@@H]1[C@@H](n1cnc3c(NC)nc(C#Cc4ccc(Cl)s4)nc31)[C@H](O)[C@@H]2O` the inhibition was about 80% (mechanical allodynia, paw withdrawal threshold; mouse, sciatic nerve CCI; oral, 3 µmol/kg, 3 h).
